Assay results collected from several papers.
Protocols differ between the studies behind these lines. Values joined by “and” are separate records of one study, mostly repeats; a detail may differ. Numbers after ± are the reported error.

CCCC[C@@H]1NC(=O)[C@@H](CC(C)C)NC(=O)[C@H](CCCCNC(=O)CN2CCN(CC(=O)O)CCN(CC(=O)O)CC2)NC(=O)[C@@H](CO)NC(=O)[C@H](Cc2c[nH]cn2)NC(=O)[C@@H](Cc2c[nH]c3ccccc23)NC1=O [copper-64 labelled] — tissue uptake (Balb/c mice, lungs; intravenous, dose not given): 33.6 ± 15.9 %ID/g
CCCC[C@H](NC(=O)COCCOCCNC(=O)CN1CCN(CC(=O)O)CCN(CC(=O)O)CC1)C(=O)N[C@H]1CC(=O)NCCCC[C@@H](C(N)=O)NC(=O)[C@H](Cc2c[nH]c3ccccc23)NC(=O)[C@H](CCCNC(=N)N)NC(=O)[C@@H](Cc2ccccc2)NC(=O)[C@H](Cc2c[nH]cn2)NC1=O [technetium-99m labelled] — tissue uptake (C57 mouse, pancreas; intravenous, 0.037 MBq, 24 h): 0.04 ± 0.03 %ID/g
N#C[C@@H]1CC(F)(F)CN1C(=O)CNC(=O)c1ccnc2ccc(OCCCN3CCN(C(=O)CN4CCN(CC(N)=O)CCN(CC(N)=O)CCN(CC(N)=O)CC4)CC3)cc12 [lead-203 labelled] — tissue uptake (male NRG mice HEK293T-hFAP tumour, bladder; intravenous, 100 pmol, 1 h, unblocked): 291 ± 114 %ID/g
CCCC[C@H](NC(=O)CCCCCCCNC(=O)CN1CCN(CC(=O)O)CCN(CC(=O)O)CC1)C(=O)N[C@H]1CC(=O)NCCCC[C@@H](C(N)=O)NC(=O)[C@H](Cc2c[nH]c3ccccc23)NC(=O)[C@H](CCCNC(=N)N)NC(=O)[C@@H](Cc2ccccc2)NC(=O)[C@H](Cc2c[nH]cn2)NC1=O [technetium-99m labelled] — tissue uptake (C57 mouse, pancreas; intravenous, 0.037 MBq, 4 h): 0.01 ± 0.04 %ID/g
N#C[C@@H]1CC(F)(F)CN1C(=O)CNC(=O)c1ccnc2ccc(OCCCN3CCN(C(=S)Nc4ccc(C[C@H]5CN(CC(N)=O)CCN(CC(N)=O)CCN(CC(N)=O)CCN5CC(N)=O)cc4)CC3)cc12 [lead-203 labelled] — tissue uptake (male NRG mice HEK293T-hFAP tumour, bladder; intravenous, 100 pmol, 1 h, unblocked): 8.11 ± 7.22 %ID/g
Cc1cc(-c2ccc(NC(=O)CC[C@H](NC(=O)CN3CCN(CC(=O)O)CCN(CC(=O)O)CCN(CC(=O)O)CC3)C(=O)NCC(=O)N[C@@H](CC(N)=O)C(=O)N[C@H](C(=O)N[C@H](C(=O)N[C@@H](CCCNC(=N)N)C(=O)N[C@@H](CCC(N)=O)C(=O)O)C(C)C)C(C)C)c(C)c2)ccc1/N=N/c1ccc2c(S(=O)(=O)O)cc(S(=O)(=O)O)c(N)c2c1O [copper-64 labelled] — tissue uptake (nude mice, muscle; intravenous, 4 h): 2.69 ± 0.44 %ID/g
CCCC[C@@H]1NC(=O)[C@@H](CC(C)C)NC(=O)[C@H](CCCCNC(=O)CN2CCN(CC(=O)O)CCN(CC(=O)O)CC2)NC(=O)NNC(=O)[C@H](Cc2c[nH]cn2)NC(=O)[C@@H](Cc2c[nH]c3ccccc23)NC1=O [copper-64 labelled] — tissue uptake (Balb/c mice, spleen; intravenous, dose not given): 1.8 ± 1.1 %ID/g
CC(NS(=O)(=O)c1ccc(CCC(=O)N2CCN(C)CC2)cc1)c1ccccc1 (centres unmarked) — translation activity (Trypanosoma cruzi; reporter mRNA translation, inhibitor, item: Renilla luciferase mRNA; cell-free extract; concentration not given, test 2; relative to: positive over negative control): 123% and 149%
CC(C)C[C@H](NC(=O)[C@H](Cc1ccc(O)cc1)NC(=O)[C@@H](CCCNC(=N)N)NC(=O)[C@@H](CO)NC(=O)[C@H](Cc1ccccc1)NC(=O)[C@H](CC1CCCCC1)NC(=O)[C@H](CC(=O)O)NC(=O)CN1CCN(CC(=O)O)CCN(CC(=O)O)CCN(CC(=O)O)CC1)C(=O)N[C@@H](Cc1c[nH]c2ccccc12)C(=O)N[C@@H](CO)C(=O)O [copper-64 labelled] — activity concentration (human, spleen; concentration not given, 1 h): 2490 Bq/mL and 3790 Bq/mL and 2680 Bq/mL and 2980 Bq/mL and 3360 Bq/mL and 2530 Bq/mL
Cc1ccc(-c2cn(Cc3cccc(Cl)c3)c3[n+]2CCC3)cc1.[Br-] — translation activity (Trypanosoma cruzi; reporter mRNA translation, inhibitor, item: Renilla luciferase mRNA; cell-free extract; concentration not given, test 2; relative to: positive over negative control): 86.8% and 151%
CC(C)C[C@H](NC(=O)[C@@H](CCCCNC(=O)[C@@H](Cc1ccccc1)NC(=O)CCCCCNC(=O)CN1CCN(CC(=O)O)CCN(CC(=O)O)CCN(CC(=O)O)CC1)NC(=O)[C@H](Cc1ccc(O)cc1)NC(=O)[C@H](CO)NC(=O)[C@H](Cc1c[nH]c2ccccc12)NC(=O)[C@H](Cc1c[nH]cn1)NC(=O)[C@@H]1CCC(=O)N1)C(=O)N[C@@H](CCCNC(=N)N)C(=O)N1CCC[C@H]1C(=O)NCC(N)=O [indium-111 labelled] — tissue uptake (female athymic nude mice, lung; intravenous, 0.037 MBq, 2 h): 0.21 ± 0.05 %ID/g

A few entries again:
CCCC[C@@H]1NC(=O)[C@@H](CC(C)C)NC(=O)[C@H](CCCCNC(=O)CN2CCN(CC(=O)O)CCN(CC(=O)O)CC2)NC(=O)NNC(=O)[C@H](Cc2c[nH]cn2)NC(=O)[C@@H](Cc2c[nH]c3ccccc23)NC1=O [copper-64 labelled] — tissue uptake (Balb/c mice, spleen; intravenous, dose not given): 1.8 ± 1.1 %ID/g
